{"data": "Published values of several laboratories", "note": "A part holds a random share of what one study measured. Positions count from the first letter of the parent shown."}
{"data": "Set 1", "target": "RNA binding protein fox-1 homolog 2, RRM domain, GST-SBP tag (RBFOX2, Homo sapiens, UniProt O43251-10, residues 100-194)", "method": "RNA Bind-n-Seq", "molecule type": "RNA", "matrix": "in vitro", "tested at": "365 nM", "notes": "natural RNA segment, single round, ends assumed", "baseline": "no-protein control", "direction": "higher = stronger binding", "Target sequence (chain)": "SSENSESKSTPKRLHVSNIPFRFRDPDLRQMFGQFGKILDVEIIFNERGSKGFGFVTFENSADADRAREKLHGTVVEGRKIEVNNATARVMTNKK"}
{"Sequence": "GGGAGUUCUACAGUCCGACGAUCUACCAAAUUGUUUUUUUCUUUUUAAAAGGAAGUUUAAUGUCCGUUGUAUCACAAAUCAGUGUUAAAACACCAGAACUUUAGCCAAAAUAAAUGUCUUACAUUACAAAGGUUGGAAUUCUCGGGUGCCAA", "RBNS enrichment (R)": 0.931}
{"Sequence": "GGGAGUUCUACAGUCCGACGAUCAUGCCAUGCGUGCUCCAGAGCCUAGGAACAGCAGACAGAACCCAGUUGGAAUGCUUCUACCCUGGCUUCUAAAUUCAGGCCUGUGGGUAAUCCCAAGUAUACAGGAAAUUUGGAAUUCUCGGGUGCCAA", "RBNS enrichment (R)": 0.377}
{"Sequence": "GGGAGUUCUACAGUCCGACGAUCCAUUGUACAAAGUUCAAGGCUAAGAGUUCUGAAUUCUGGCGUCAGCUUCCUCAGGAUUUUCUUCAGUUGCAAGUACCUUUCCACUGAAAAUAUGAGCAUGCCCGCCUGGCUGGAAUUCUCGGGUGCCAA", "RBNS enrichment (R)": 0.97}
{"Sequence": "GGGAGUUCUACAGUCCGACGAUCAAUGCUUCUGGAGACGGAAACAUAUUCCCUACAGGGAAUGAAGCUUCUCAGAGAAACUGCCGAAAGUUGCAUUAAAAAAAAUAAAAAGUACAGAAGAAAUAGUUGCCACUUGGAAUUCUCGGGUGCCAA", "RBNS enrichment (R)": 0.59}
{"Sequence": "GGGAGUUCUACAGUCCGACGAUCGAGUUAGGACCAACGACUAUUAACUUGCAUUCACAUUAUCCUCACAGAACCAAGAGUGGCAAUGCUUUGGAGAAUAGCAGUCCAGCCUAGUUAACAUGGGGAAAGAUGACUGGAAUUCUCGGGUGCCAA", "RBNS enrichment (R)": 0.516}
{"Sequence": "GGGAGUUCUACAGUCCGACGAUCUGACAUUUUAAGUACAACUUUUAAGGACUAAUUACUGUGAUGGACACAGAAAUGUAGCUGUGUUCUGGAACUGAAUCUUACAUGGUAUACUUAGUGCUGCUGGGUAAUUUUGGAAUUCUCGGGUGCCAA", "RBNS enrichment (R)": 0.349}
{"Sequence": "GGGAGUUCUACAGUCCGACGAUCUUGUAUUUGACUAUUUAAUCCUUUCUACUUGUCGCUAAAUAUAAUUGUUUUAGUCUUAUGGCAUGAUGAUAGCAUAUGUGUUCAGGUUUAUAGCUGUUGUGUUUAAAAAUUGGAAUUCUCGGGUGCCAA", "RBNS enrichment (R)": 0.69}
{"Sequence": "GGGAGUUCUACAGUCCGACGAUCGAAUUCUCAUGUAAUGAGAAGCAAGAAAACUAUGUGUUACUAUUCAUUAUAUUUCAUGUUUGACCAUUUGACUAACCAGCAGGCUUGGAGUUGAAUAGCUUUUGCUUUGCUGGAAUUCUCGGGUGCCAA", "RBNS enrichment (R)": 0.377}
{"Sequence": "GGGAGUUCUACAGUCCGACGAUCUCUCCGCUUUGCCCCCACGGGGUUCCUCUAACCAGAACCAGCUUCCUAGCCUCGUAGAGACCAAAGGCCGCCCCCGCCUGCUGGGGUUCCUCCCAGCACCCCAGCUUGCUUGGAAUUCUCGGGUGCCAA", "RBNS enrichment (R)": 0.473}
{"Sequence": "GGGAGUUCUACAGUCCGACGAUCAUAGUUUUAAAAUUAAUCUUUGCAUGAAGGUUGGUUUCGCUUUUUUUCCUUUAAGUUUGUUUUUAAAUGUAUUAGUCCAGGGGAUUUUGCCUUAUGCUGAGGUCAAACUAUGGAAUUCUCGGGUGCCAA", "RBNS enrichment (R)": 29.9}
{"Sequence": "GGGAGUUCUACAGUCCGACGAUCGUACCCAGGCUUUAGCAUUAUUGGAUGUCAAUAGCAUUGUUUUUGUCAUGUAGCUGUUUUAAGAAAUCUGGCCCAGGGUGUUUGCAGCUGUGAGAAGUCACUCACACUGGUGGAAUUCUCGGGUGCCAA", "RBNS enrichment (R)": 0.535}
{"Sequence": "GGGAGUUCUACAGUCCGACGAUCGAGCCUGGUUCUCCCCCAGAGGUGUUGAUGCUGAAAACUUGCCAUUGUGGGCAGGGAGGGCAGAAAUAAAGUCUGCAGCCGUGCCACUCCUUGGGUCAAAAGGACACGCAUGGAAUUCUCGGGUGCCAA", "RBNS enrichment (R)": 0.621}
{"data": "Set 2", "target": "Interferon regulatory factor 5, full length, phosphomimetic (IRF5, Homo sapiens, UniProt Q13568-2, residues 1-514, S451D/S453D/S456D/S462D)", "method": "protein-binding microarray", "molecule type": "double-stranded DNA, one strand shown", "matrix": "in vitro", "tested at": "940 nM top", "notes": "60-bp whole probe", "added": "salmon DNA 0.4 mg/ml", "baseline": "random background probes", "direction": "higher = stronger binding", "constant ends, left off below": "GCCTAGCAC … GTCTTGATTCGCTTGACGCTGCTG"}
{"Sequence": "ACTAGTTTCCATTTTCAGAAGTGCTAG", "fitted relative affinity": "2.68 z-score"}
{"Sequence": "CAGCCGCACAGCATGAGTTCGTGCTAG", "fitted relative affinity": "-0.517 z-score"}
{"Sequence": "TTAGGACCGGGTATCGGTTAGTGCTAG", "fitted relative affinity": "3.25 z-score"}
{"Sequence": "TCAGCTTTTTAGATCGTACTGTGCTAG", "fitted relative affinity": "0.358 z-score"}
{"Sequence": "GACGGTATCGGGACTGGTGACGTGCTA", "fitted relative affinity": "2.94 z-score"}
{"Sequence": "TCACGGCTCTAAACTCATACTGTGCTA", "fitted relative affinity": "0.0829 z-score"}
{"Sequence": "GACGGACTGAACTATCGGGACGTGCTA", "fitted relative affinity": "-0.652 z-score"}
{"Sequence": "GACGATTTCAGAGTGGAGACGTGCTAG", "fitted relative affinity": "-0.443 z-score"}
{"Sequence": "AGTCTCTGCAGGGAGAGAGCGTGCTAG", "fitted relative affinity": "0.969 z-score"}
{"Sequence": "TCAACTCAGCACTTTGGCACTGTGCTA", "fitted relative affinity": "-0.465 z-score"}
{"Sequence": "GGATGAGTCACTTCTGGTGCTGTGCTA", "fitted relative affinity": "-0.392 z-score"}
{"Sequence": "TTAGGTCTCCTTATCCCTTAGTGCTAG", "fitted relative affinity": "0.575 z-score"}
{"Sequence": "TTATTTATAAATTATCTTTAAGTGCTA", "fitted relative affinity": "0.0935 z-score"}
{"Sequence": "GACGATATCGGGTATGGAGACGTGCTA", "fitted relative affinity": "0.0588 z-score"}
{"Sequence": "TCACCTTTACATTCCCCACTGTGCTAG", "fitted relative affinity": "1.66 z-score"}
{"Sequence": "TTAGGACTGGGGAGTGGGTTAGTGCTA", "fitted relative affinity": "-0.0384 z-score"}
{"Sequence": "GACGGCCTCGGTTTCGGGACGTGCTAG", "fitted relative affinity": "3.05 z-score"}
{"Sequence": "GACGGTTTCGGGTTTAGGGACGTGCTA", "fitted relative affinity": "8.22 z-score"}
{"data": "Set 3", "target": "Sal-like protein 4, full length isoform A (SALL4, Homo sapiens, UniProt Q9UJQ4, residues 1-1053)", "method": "universal PBM", "molecule type": "double-stranded DNA, one strand shown", "matrix": "in vitro", "tested at": "600 nM", "notes": "8-mer, flanks averaged, mean of replicates", "direction": "higher = stronger binding", "UniProt Q9UJQ4, sequence (whole entry, looked up)": "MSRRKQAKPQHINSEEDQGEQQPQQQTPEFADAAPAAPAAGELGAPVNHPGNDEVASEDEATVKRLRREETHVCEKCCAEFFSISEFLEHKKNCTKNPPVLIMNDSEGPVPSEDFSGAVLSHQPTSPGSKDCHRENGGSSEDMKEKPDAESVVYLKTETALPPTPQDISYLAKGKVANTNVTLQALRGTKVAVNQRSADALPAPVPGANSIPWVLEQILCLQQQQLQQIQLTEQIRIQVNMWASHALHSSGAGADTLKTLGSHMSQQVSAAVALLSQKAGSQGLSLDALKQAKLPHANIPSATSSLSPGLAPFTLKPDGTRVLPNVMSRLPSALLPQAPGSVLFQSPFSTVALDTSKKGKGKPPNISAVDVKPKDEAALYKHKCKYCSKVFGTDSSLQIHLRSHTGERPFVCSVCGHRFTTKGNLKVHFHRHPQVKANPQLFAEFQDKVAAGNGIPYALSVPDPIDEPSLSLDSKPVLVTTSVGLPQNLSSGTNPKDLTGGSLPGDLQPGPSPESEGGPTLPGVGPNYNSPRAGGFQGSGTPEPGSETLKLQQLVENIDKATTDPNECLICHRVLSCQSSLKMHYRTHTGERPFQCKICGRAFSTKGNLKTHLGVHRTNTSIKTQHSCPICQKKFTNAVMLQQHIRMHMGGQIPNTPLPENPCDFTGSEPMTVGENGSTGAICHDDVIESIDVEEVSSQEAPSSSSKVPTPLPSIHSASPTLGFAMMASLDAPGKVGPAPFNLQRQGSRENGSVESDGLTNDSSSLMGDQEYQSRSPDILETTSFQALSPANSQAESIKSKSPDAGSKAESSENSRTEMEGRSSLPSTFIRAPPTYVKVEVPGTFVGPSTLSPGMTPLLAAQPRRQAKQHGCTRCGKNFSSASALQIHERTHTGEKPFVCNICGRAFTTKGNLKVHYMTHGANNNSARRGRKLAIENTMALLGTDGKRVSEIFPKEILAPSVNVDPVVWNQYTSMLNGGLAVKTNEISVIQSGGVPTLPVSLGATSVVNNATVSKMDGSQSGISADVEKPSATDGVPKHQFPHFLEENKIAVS"}
{"Sequence": "CCGCATGC", "E-score": -0.254}
{"Sequence": "GTTGAGAA", "E-score": -0.0268}
{"Sequence": "AGCATCTA", "E-score": 0.165}
{"Sequence": "AGCCGCGC", "E-score": -0.36}
{"Sequence": "TCGAAAAA", "E-score": 0.264}
{"Sequence": "GCTATCAA", "E-score": 0.0979}
{"Sequence": "ACGTCGCC", "E-score": -0.324}
{"Sequence": "GAGTCTCA", "E-score": -0.0565}
{"Sequence": "GCGCGCGC", "E-score": -0.111}
{"Sequence": "AACAACAC", "E-score": 0.152}
{"Sequence": "CCGGGCCG", "E-score": -0.436}
{"Sequence": "ATTTACTG", "E-score": 0.27}
{"Sequence": "AATCGCAA", "E-score": -0.00149}
{"Sequence": "ACGTATTC", "E-score": 0.0468}
{"Sequence": "AGTCAAAC", "E-score": -0.125}
{"Sequence": "GGCAATGA", "E-score": 0.0339}
{"Sequence": "AACGTGGA", "E-score": -0.122}
{"Sequence": "CACCGAGA", "E-score": -0.199}
{"Sequence": "GTGAGAGA", "E-score": -0.0587}
{"Sequence": "GCGTCTCA", "E-score": -0.242}
{"Sequence": "ACGGGCAT", "E-score": -0.143}
{"Sequence": "ACAGAATA", "E-score": 0.284}
{"Sequence": "AGAACCAC", "E-score": -0.0488}
{"data": "Set 4", "target": "Histone acetyltransferase KAT6A, winged helix 2, GST fusion (KAT6A, Homo sapiens, UniProt Q92794, residues 85-181)", "method": "protein binding microarray", "molecule type": "double-stranded DNA, one strand shown", "matrix": "in vitro", "tested at": "not given", "notes": "8-mer, flanks averaged, mean of 2 arrays, mostly near background", "baseline": "not given", "direction": "higher = stronger binding", "Residues (chain)": "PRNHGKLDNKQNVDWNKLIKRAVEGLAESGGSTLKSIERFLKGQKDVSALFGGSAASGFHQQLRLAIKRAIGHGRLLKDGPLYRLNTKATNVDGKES"}
{"Sequence": "GCTGCGGA", "E-score": 0.16}
{"Sequence": "GTCAGCCA", "E-score": -0.0612}
{"Sequence": "CAATACTG", "E-score": -0.0628}
{"Sequence": "CACTCCCA", "E-score": -0.013}
{"Sequence": "GGGATTCA", "E-score": -0.0866}
{"Sequence": "GGATTGAA", "E-score": 0.112}
{"Sequence": "CGCGGTCC", "E-score": 0.11}
{"Sequence": "GTATGCAC", "E-score": 0.0846}
{"Sequence": "GGCTGCAA", "E-score": 0.0432}
{"Sequence": "AACGCAGA", "E-score": 0.126}
{"Sequence": "CTACCAAG", "E-score": 0.0156}
{"Sequence": "CGGGTCGC", "E-score": 0.222}
{"Sequence": "CTTTGCCC", "E-score": -0.0454}
{"Sequence": "GCCTGCAC", "E-score": 0.121}
{"Sequence": "ATATCCAC", "E-score": 0.0605}
{"Sequence": "GACAGAGC", "E-score": 0.0332}
{"Sequence": "CATTTACG", "E-score": -0.229}
{"Sequence": "AAGCGGTA", "E-score": 0.0137}
{"Sequence": "AAGGAGAC", "E-score": -0.029}
{"Sequence": "CACGTCTG", "E-score": -0.0261}
{"Sequence": "CTCTACGC", "E-score": -0.0117}
{"data": "Set 5", "target": "CCNA2, cyclin fold, Cln2 fusion (human)", "method": "yeast growth competition, sequencing", "matrix": "yeast", "notes": "strong parent motif", "baseline": "not given", "direction": "higher = stronger binding", "starting sequence": "PPP1R3F docking peptide (human); VAPRRVLFADEAL"}
{"Substitution": "L13A", "normalised enrichment score": 2.11}
{"Substitution": "L7A", "normalised enrichment score": 0.526}
{"Substitution": "E11A", "normalised enrichment score": 2.59}
{"Substitution": "R5K F8L", "normalised enrichment score": 0.427}
{"Substitution": "V1A", "normalised enrichment score": 2.43}
{"Substitution": "R5A", "normalised enrichment score": 0.662}
{"note": "Excerpt of the above (set 4):"}
{"Sequence": "GTATGCAC", "E-score": 0.0846}
{"Sequence": "GCCTGCAC", "E-score": 0.121}
{"Sequence": "ATATCCAC", "E-score": 0.0605}
{"Sequence": "GGGATTCA", "E-score": -0.0866}
{"Sequence": "GTCAGCCA", "E-score": -0.0612}
{"Sequence": "GCTGCGGA", "E-score": 0.16}
{"Sequence": "CTACCAAG", "E-score": 0.0156}
{"Sequence": "CGGGTCGC", "E-score": 0.222}
{"Sequence": "AAGCGGTA", "E-score": 0.0137}
{"Sequence": "CTTTGCCC", "E-score": -0.0454}
{"Sequence": "GGCTGCAA", "E-score": 0.0432}
